Assay results from different studies.
A part holds a random share of what one study measured. Substitutions count along the parent as printed.

Set 1 — method: RNA Bind-n-Seq; form: RNA; sample: in vitro; tested at: 365 nM; reference: no-protein control; direction: higher = stronger binding
Target: RNA binding protein fox-1 homolog 2, RRM domain, GST-SBP tag (RBFOX2, Homo sapiens, UniProt O43251-10, residues 100-194)
Setting: natural RNA segment, single round, ends assumed
Shared flanks, not repeated: GGGAGUUCUACAGUCCGACGAUC … UGGAAUUCUCGGGUGCCAA
Residues (chain): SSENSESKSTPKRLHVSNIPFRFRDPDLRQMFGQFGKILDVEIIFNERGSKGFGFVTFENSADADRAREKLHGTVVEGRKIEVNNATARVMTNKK
`AGAUUUGGGGCCACAUUGUUUACAAACUAUACACACCAGGUUAAUAGACACCCCGUCUUAAGCACCAGCUCCUCUUGGGUGCCCCCAGAGCCCCUGCAACUGUUAUCCAC` — result for “RBNS enrichment (R)”: 0.643.
`GACUUGGUGAUUACCUGAAAGCCCUUCUCAAGACCGAGUGUACACCACUUUCCCACACUGUGAACUAAUGACAAGUGACUUAUUUGCUCAUAAGUAAAUGUCUUCAUGUU`: “RBNS enrichment (R)” 0.262.
Under “RBNS enrichment (R)”, `AUGGUUACACCAUCACCCCCAACACCCUCAAGACCCUGGUGCUGGUAGGCUGUUUCACCGUCUUCUGGACUGUUUACUACAUGCUGGAAGUAUAUUUGAGCCAGAGGAAU` is recorded as 0.999.
`UGCCGCGCAACACAUCUCUCUGAGGCUGGCAAGCCUCGCCCCUCGCAGUGACGUCCUCCCACGCCUGGCGGCCGUAGUGGCUGUGCUCCGGGCAGCAUCGGGCUUCAUAG` — result for “RBNS enrichment (R)”: 0.31.
`CUAUUCUCUCAGACGGUGGAAUAUUUGGAAAAAUUUUAAAACAAUUAAAAUUUUAAAGCAAUCUUGGCAGACUAAAACAAGUACAUCUGUACAUGACUGUAUAAUUACGA`: “RBNS enrichment (R)” 0.626.
`CUCCAGACGGCCUGCCAUCCAGCCCUCUGGCCUGAGGAAGACCCCCAUAGGCUCCGGACAGGCAGGUCCUUUCUAUCCCAUGCCACCACUUCCUUCCCCCUUUAACUGAG`: “RBNS enrichment (R)” 0.502.
For `UCUCAGAAUGGGAGACCGAGCGCAGGUUAGGCACCCCUCCCCCUUGCAUCUGUGAGUCCCUCUGGGCGGCUCGUGUACUGAUCGGAUCUGUGAGUCCCUCUGGGCGGCUC`, “RBNS enrichment (R)” read 0.428.
`AGACUGUCUAGAAAUUUUGUGUAUUAUGAGGGGAAAAAAGGAAAAGCUUGAAUCUGUGUAGUCUCUGACCCUAAGUGAGAAUGACUUUGGUGUCAGGGUCCUGUGGAGUU`: “RBNS enrichment (R)” 2.7.

Set 2 — method: competition protein-binding microarray; form: double-stranded DNA, one strand shown; sample: in vitro; tested at: 2 µM; added: Cbf1 competitor, 0.05 µM; direction: higher = stronger binding; shared flanks, not repeated: … GTCTTGATTCGCTTGACGCTGCTG
Target: Phosphate system positive regulatory protein PHO4, full length, GST-tagged (PHO4, Saccharomyces cerevisiae, UniProt P07270, residues 1-312)
Setting: whole 60-bp probe, lowest competitor level
Construct (chain): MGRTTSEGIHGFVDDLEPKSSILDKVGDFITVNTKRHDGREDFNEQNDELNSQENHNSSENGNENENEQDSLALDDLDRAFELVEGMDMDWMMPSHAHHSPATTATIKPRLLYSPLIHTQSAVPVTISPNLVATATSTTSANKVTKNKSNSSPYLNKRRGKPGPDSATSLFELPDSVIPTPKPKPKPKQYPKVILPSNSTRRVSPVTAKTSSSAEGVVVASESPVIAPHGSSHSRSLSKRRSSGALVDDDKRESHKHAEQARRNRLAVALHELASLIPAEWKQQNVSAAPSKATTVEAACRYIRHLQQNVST
For `CATACCCAACCTTGTCCTGTGGGTGAAGATATTTGT`, the fluorescence intensity was 4560 a.u.
`GAACTGCTTCGAAAACACGTGTTCCCCTCCGTTCCA` gave a fluorescence intensity of 17000 a.u.
With `ATTTGCATATTCGACTTCGTGCAAACAGAAATGCGG` the fluorescence intensity was 6530 a.u.
For `AAAGCGGTAATTTGACTTGTGGGTGCAGATATCTAT`, the fluorescence intensity was 5250 a.u.
`AGTCTCATCTTCTTTCCCGTGCCGACGGGTTTAGTA` has a fluorescence intensity of 7380 a.u.
With `GTCTTGTCTCATTGGCGTGTGGGTGTCCCCACTTCA` the fluorescence intensity was 6860 a.u.
For `AACAACCGCCTCGACCACGCACCAAAGAGCTGTTAA`, the fluorescence intensity was 6980 a.u.
With `CGGATCAGTTTACATCATGTGTGCCCCCACCATGAT` the fluorescence intensity was 8220 a.u.

Set 3 — Variant: W134L; method: DHFR PCA, deep sequencing; sample: yeast; reference: wild-type fitted maximum; direction: higher = stronger binding
Target: ABI1, truncated, D143A, DHFR fusion (Arabidopsis thaliana)
Setting: methotrexate growth selection, single substitutions
Parent: PYL1, truncated, DHFR fusion (Arabidopsis thaliana); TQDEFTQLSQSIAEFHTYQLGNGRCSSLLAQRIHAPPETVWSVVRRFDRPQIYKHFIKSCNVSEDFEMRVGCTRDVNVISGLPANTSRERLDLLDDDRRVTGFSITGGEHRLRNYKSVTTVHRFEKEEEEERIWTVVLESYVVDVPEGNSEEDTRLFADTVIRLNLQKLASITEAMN
For added: (+)-ABA 0.0091 µM: “relative binding score” read 14.1%.
For added: (+)-ABA 2500 µM: “relative binding score” read 106%.
added: (+)-ABA 58 µM — “relative binding score”: 94.6%.
It gave 21.9% for “relative binding score” (added: (+)-ABA 0.11 µM).
It gave 13.4% for “relative binding score” (added: (+)-ABA 0 µM).
For added: (+)-ABA 0.032 µM: “relative binding score” read 13.7%.

Single results of other studies
For `Cn1sc(=O)n(Cc2ccccc2)c1=O`, the remaining activity was 106% (Receptor tyrosine-protein kinase erbB-2 (ERBB2, Homo sapiens, UniProt P04626); enzyme activity, inhibitor; 0.5 µM; reference: control).

A few entries again (set 2):
For `AAAGCGGTAATTTGACTTGTGGGTGCAGATATCTAT`, the fluorescence intensity was 5250 a.u.
For `AACAACCGCCTCGACCACGCACCAAAGAGCTGTTAA`, the fluorescence intensity was 6980 a.u.
`GAACTGCTTCGAAAACACGTGTTCCCCTCCGTTCCA` gave a fluorescence intensity of 17000 a.u.
With `CGGATCAGTTTACATCATGTGTGCCCCCACCATGAT` the fluorescence intensity was 8220 a.u.
